Measured values of several laboratories.
Numbered parts are unrelated; each lists some results of a single study.
Chain of UniProt P10721 (whole entry, unmodified, looked up): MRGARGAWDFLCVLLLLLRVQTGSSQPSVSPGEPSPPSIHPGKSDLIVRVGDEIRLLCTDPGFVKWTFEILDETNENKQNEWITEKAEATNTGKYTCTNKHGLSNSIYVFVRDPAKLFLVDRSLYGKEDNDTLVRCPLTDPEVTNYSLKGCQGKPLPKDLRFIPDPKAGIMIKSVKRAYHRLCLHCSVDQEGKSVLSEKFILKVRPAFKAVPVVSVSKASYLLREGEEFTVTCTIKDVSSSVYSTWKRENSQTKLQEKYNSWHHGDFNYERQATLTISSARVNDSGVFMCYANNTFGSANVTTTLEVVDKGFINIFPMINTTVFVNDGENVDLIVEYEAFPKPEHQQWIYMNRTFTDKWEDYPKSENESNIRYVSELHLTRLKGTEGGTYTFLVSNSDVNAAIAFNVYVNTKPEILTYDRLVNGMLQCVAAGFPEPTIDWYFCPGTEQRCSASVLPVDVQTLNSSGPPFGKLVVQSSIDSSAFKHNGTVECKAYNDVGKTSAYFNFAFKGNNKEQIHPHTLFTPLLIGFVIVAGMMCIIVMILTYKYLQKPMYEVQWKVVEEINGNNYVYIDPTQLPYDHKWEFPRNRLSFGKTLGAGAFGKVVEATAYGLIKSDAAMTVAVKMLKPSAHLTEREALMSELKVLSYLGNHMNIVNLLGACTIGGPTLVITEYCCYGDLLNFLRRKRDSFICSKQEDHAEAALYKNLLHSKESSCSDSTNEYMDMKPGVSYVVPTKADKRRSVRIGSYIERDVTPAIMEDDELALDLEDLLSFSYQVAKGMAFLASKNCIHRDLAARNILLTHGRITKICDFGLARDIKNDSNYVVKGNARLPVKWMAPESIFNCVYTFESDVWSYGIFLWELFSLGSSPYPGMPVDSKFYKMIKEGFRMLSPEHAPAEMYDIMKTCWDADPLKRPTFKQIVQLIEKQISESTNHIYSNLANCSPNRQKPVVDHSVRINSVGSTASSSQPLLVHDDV
Chain of UniProt Q8IYT8 (whole entry, looked up): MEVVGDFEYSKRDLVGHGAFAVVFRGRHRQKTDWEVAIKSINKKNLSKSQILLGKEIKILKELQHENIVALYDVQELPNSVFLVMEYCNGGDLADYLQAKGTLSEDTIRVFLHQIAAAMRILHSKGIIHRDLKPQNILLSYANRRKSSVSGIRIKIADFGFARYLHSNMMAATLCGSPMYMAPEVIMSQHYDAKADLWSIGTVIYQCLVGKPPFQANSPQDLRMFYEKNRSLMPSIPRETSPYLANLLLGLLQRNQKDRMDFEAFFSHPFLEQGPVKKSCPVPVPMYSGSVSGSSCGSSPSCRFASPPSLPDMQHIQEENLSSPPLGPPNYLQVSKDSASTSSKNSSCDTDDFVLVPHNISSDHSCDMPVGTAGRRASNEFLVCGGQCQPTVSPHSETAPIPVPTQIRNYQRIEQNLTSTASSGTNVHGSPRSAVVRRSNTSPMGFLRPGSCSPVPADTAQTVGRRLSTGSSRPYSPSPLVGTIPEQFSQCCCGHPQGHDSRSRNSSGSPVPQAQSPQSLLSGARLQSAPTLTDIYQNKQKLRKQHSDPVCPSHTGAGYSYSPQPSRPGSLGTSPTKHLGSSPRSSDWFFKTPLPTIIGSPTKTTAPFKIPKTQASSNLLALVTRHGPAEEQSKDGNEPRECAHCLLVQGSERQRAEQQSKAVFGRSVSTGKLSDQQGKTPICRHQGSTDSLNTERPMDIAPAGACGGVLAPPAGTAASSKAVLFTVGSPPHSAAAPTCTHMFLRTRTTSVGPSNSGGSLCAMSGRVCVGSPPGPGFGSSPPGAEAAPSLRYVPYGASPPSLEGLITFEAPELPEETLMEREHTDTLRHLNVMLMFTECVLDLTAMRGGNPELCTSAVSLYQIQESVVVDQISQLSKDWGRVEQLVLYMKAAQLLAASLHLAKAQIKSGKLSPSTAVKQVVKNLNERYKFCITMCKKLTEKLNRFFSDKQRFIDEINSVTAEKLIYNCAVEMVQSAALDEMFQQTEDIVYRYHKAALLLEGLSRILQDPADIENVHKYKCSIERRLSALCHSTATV
Chain of UniProt P54764 (whole entry, looked up): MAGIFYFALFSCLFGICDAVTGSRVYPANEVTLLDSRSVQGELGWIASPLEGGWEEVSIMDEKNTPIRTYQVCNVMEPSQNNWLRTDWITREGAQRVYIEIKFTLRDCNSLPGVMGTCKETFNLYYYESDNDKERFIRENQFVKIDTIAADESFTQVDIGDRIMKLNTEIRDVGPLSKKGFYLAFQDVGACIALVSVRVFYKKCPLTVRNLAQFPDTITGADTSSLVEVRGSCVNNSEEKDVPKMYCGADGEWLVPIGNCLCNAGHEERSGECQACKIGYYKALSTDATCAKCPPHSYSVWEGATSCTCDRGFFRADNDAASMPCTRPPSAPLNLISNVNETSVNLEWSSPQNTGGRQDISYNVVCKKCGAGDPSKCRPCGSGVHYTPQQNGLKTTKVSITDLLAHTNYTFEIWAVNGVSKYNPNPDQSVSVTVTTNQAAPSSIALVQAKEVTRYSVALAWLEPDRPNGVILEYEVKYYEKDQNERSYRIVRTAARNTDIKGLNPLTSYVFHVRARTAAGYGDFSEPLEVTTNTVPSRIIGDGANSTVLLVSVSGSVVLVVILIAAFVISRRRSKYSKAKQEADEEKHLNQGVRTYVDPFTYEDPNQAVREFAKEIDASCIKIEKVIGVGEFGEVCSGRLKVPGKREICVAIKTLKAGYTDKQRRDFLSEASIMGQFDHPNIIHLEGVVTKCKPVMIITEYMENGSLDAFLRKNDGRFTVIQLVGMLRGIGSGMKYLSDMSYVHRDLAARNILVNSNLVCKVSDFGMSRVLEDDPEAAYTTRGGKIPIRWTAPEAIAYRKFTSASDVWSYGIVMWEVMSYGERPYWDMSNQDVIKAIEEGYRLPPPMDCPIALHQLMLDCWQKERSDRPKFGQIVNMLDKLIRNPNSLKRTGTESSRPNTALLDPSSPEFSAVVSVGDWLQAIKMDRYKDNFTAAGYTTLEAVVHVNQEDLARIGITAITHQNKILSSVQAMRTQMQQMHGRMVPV
Chain of UniProt P41743 (whole entry, looked up): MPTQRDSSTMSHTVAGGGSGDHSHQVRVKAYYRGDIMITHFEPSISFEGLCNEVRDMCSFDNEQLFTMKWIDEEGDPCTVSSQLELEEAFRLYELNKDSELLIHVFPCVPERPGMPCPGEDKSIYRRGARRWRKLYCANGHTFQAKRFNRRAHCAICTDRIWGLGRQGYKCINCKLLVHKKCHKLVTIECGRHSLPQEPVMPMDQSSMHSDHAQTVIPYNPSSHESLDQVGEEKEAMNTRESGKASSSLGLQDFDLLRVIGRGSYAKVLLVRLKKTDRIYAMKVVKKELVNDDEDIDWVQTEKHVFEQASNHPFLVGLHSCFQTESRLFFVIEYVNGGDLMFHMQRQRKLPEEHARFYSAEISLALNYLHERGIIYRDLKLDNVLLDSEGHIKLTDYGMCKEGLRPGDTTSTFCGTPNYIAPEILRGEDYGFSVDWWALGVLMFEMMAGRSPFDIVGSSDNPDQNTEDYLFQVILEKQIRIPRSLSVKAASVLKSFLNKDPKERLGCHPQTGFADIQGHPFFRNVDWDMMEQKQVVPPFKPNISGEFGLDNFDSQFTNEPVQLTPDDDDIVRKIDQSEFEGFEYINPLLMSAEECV

Sample 1 — observed: cell-free assay; technique: competition with immobilised ligand; tested at: 1 µM
Structure (SMILES): CC(=O)C1=C(C)N(c2cccc(C(F)(F)F)c2)C(=O)N[C@@H]1c1ccc(C#N)nc1
| target | remaining binding [%] |
| --- | --- |
| Protein kinase C iota type (PRKCI, Homo sapiens, UniProt P41743) | 100 |
| Serine/threonine-protein kinase 32B (STK32B, Homo sapiens, UniProt Q9NY57) | 100 |
| Serine/threonine-protein kinase ULK2 (ULK2, Homo sapiens, UniProt Q8IYT8) | 100 |
| Phosphatidylinositol 3-kinase catalytic subunit type 3 (PIK3C3, Homo sapiens, UniProt Q8NEB9) | 100 |
| Ephrin type-A receptor 4 (EPHA4, Homo sapiens, UniProt P54764) | 100 |
| Mast/stem cell growth factor receptor Kit (KIT, Homo sapiens, UniProt P10721, V559D) | 100 |
| Cyclin-dependent kinase 15 (CDK15, Homo sapiens, UniProt Q96Q40) | 100 |

Sample 2 — technique: aptamer microarray, sandwich; molecule type: DNA with 2'F-ANA; sample: in vitro; tested at: 200 nM; with: Cy3 exosite-II aptamer, 400 nM; direction: higher = stronger binding; strand: GGTTGGTGTGGTTGG
Target: Prothrombin, mature alpha-thrombin (F2, Homo sapiens, UniProt P00734)
Setting: whole 15-mer aptamer, many near background
| Modification | mean fluorescence intensity [a.u.] |
| --- | --- |
| 2'F-ANA at 2 3 5 8 9 11 14 | 56 |
| 2'F-ANA at 1 2 8 10 11 12 14 15 | 47.3 |
| 2'F-ANA at 1 2 6 7 9 10 11 13 15 | 51.5 |
| 2'F-ANA at 1 3 6 7 8 9 10 11 12 14 15 | 67.7 |
| 2'F-ANA at 1 5 6 7 8 11 15 | 51.6 |
| 2'F-ANA at 1 4 6 9 11 13 14 | 46.5 |
| 2'F-ANA at 3 5 6 7 9 10 11 12 14 | 49.3 |
| 2'F-ANA at 3 5 6 10 13 14 15 | 51.2 |

Sample 3 — observed: enzyme activity; action: inhibitor; tested at: 0.5 µM; baseline: control
Target: Misshapen-like kinase 1 (MINK1, Homo sapiens, UniProt Q8N4C8)
Chain of UniProt Q8N4C8 (whole entry, looked up): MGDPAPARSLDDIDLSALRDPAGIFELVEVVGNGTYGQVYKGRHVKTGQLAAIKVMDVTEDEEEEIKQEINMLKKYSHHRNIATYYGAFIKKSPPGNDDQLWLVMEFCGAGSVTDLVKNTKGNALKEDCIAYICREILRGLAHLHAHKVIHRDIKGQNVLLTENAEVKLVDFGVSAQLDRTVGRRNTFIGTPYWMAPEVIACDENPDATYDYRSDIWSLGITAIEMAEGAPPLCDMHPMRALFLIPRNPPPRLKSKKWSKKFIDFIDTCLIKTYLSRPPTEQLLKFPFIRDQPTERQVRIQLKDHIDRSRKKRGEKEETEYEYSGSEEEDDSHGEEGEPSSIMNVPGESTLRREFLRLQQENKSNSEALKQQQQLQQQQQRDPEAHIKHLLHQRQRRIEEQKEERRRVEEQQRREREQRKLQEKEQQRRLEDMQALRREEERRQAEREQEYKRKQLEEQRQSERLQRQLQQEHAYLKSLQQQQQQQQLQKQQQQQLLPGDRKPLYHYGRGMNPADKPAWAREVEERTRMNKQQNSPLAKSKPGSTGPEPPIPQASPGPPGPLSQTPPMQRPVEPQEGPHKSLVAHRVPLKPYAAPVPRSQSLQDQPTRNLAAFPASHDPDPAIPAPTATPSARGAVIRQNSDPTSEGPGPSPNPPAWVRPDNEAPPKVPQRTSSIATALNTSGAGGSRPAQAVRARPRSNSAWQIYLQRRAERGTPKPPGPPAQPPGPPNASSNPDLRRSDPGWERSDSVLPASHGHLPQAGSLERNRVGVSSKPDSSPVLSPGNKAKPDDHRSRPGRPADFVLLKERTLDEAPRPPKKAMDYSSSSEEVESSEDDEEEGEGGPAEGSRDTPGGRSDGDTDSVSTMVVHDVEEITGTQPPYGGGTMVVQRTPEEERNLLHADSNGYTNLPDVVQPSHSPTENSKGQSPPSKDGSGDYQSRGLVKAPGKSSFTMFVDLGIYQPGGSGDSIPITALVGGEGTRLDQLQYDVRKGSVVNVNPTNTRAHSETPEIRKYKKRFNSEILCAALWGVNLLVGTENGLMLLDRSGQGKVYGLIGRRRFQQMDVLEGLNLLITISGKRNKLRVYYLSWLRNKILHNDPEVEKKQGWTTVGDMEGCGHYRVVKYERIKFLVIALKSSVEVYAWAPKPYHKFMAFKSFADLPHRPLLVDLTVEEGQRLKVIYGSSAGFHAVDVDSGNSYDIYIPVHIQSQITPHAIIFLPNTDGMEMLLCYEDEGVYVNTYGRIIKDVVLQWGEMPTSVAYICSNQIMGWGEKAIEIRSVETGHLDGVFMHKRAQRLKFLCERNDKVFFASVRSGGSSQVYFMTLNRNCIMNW
| Compound | remaining activity |
| --- | --- |
| NCCNc1ncc(C(N)=O)c(Nc2cccc(C(F)(F)F)c2)n1 | 70% |
| COc1ccc(CNC(=O)Nc2ncc([N+](=O)[O-])s2)cc1 | 90.5% |
| CNC(=O)c1cc(Oc2ccc(NC(=O)Nc3ccc(Cl)c(C(F)(F)F)c3)cc2)ccn1 | 108% |
| OCC(O)CCON=C1C(c2c(O)[nH]c3ccccc23)=Nc2ccccc21 (stereo not shown) | 21% |
| O=c1c2ccccc2[nH]c(=S)n1CCN1CCC(=C(c2ccc(F)cc2)c2ccc(F)cc2)CC1 | 94.4% |
| Oc1ccc(-c2nc(-c3ccncc3)c(-c3ccc(F)cc3)[nH]2)cc1 | 102% |
| Cn1sc(=O)n(Cc2ccccc2)c1=O | 88.7% |
| COc1ccc(OC)c2c(=S)c3ccccc3[nH]c12 | 95.9% |
| Nc1ccc2ncnc(NCCc3ccc(Oc4ccccc4)cc3)c2c1 | 95.4% |
| CN(C)c1ccc(C=C2C(=O)Nc3ccccc32)cc1 | 79% |
| Nc1[nH]nc2nc3ccccc3nc12 | 97.9% |

Sample 4 — technique: protein binding microarray; molecule type: double-stranded DNA, one strand shown; sample: in vitro; tested at: not given; baseline: not given; direction: higher = stronger binding
Target: Histone acetyltransferase KAT6A, winged helix 1, GST fusion (KAT6A, Homo sapiens, UniProt Q92794, residues 1-85)
Setting: 8-mer, flanks averaged, mean of 2 arrays, mostly near background
Construct (chain): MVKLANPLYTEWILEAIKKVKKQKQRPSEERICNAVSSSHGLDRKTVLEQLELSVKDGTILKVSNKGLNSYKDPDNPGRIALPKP
| Strand | E-score |
| --- | --- |
| GTAGGTTA | -0.0123 |
| CTCGGCCC | 0.142 |
| CGTCTATC | -0.00121 |
| ATGTGAGA | -0.202 |
| CTCTGACC | -0.0775 |
| ACCGCGAA | 0.321 |
| AGACCGGG | 0.0921 |
| CGGGTAAG | 0.208 |

Excerpt of the above (sample 2):
| Modification | mean fluorescence intensity [a.u.] |
| --- | --- |
| 2'F-ANA at 2 3 5 8 9 11 14 | 56 |
| 2'F-ANA at 1 2 8 10 11 12 14 15 | 47.3 |
| 2'F-ANA at 1 2 6 7 9 10 11 13 15 | 51.5 |
| 2'F-ANA at 1 3 6 7 8 9 10 11 12 14 15 | 67.7 |
| 2'F-ANA at 1 5 6 7 8 11 15 | 51.6 |
